Measured values from different studies.
Each numbered part is a random draw from the data of one study; scales do not carry over between parts. Substitutions count along the parent as printed.

Block 1 — method: aptamer microarray, sandwich; molecule type: DNA with 2'F-ANA; matrix: in vitro; tested at: 200 nM; added: Cy3 exosite-II aptamer, 400 nM; reading: higher = stronger binding; quantity: mean fluorescence intensity; strand: GGTTGGTGTGGTTGG
Target: Prothrombin, mature alpha-thrombin (F2, Homo sapiens, UniProt P00734)
Setting: whole 15-mer aptamer, many near background
2'F-ANA at 1 4 5 6 7 8 10 11 12 13 15: 52.4 a.u.
2'F-ANA at 1 5 8 9 11: 57.2 a.u.
2'F-ANA at 1 3 4 5 9 10 12 13: 48.3 a.u.
2'F-ANA at 4 7 9 15: 320 a.u.
2'F-ANA at 2 3 4 5 10 14 15: 49 a.u.
2'F-ANA at 3 5 7 9 10 11 12 13 15: 116 a.u.
2'F-ANA at 2 6 7 10 11 12 14: 81.4 a.u.
2'F-ANA at 4 6 10 12 13 14: 58.9 a.u.
2'F-ANA at 2 3 4 7 8 13: 570 a.u.
2'F-ANA at 2 3 4 7 11 12 13 14 15: 307 a.u.

Block 2 — method: universal PBM; molecule type: double-stranded DNA, one strand shown; matrix: in vitro; tested at: not given; reading: higher = stronger binding; quantity: E-score
Target: Sal-like protein 4, full length isoform B (SALL4, Homo sapiens, UniProt Q9UJQ4-2, residues 1-616)
Setting: 8-mer, flanks averaged, mean of replicates
CTTCTTTA: 0.14
AGTGTTTG: 0.00858
GACCCGGA: -0.45
AACAGTCC: -0.00045
CAGAGAGG: -0.258
CGCCGGCG: -0.289
ACCCCCCG: -0.237
GACCGCCA: -0.202
ACTCTGGA: 0.089
CCAAGTTC: -0.177

Block 3 — method: DHFR PCA, deep sequencing; matrix: yeast; added: (+)-ABA 0.11 µM; baseline: wild-type fitted maximum; reading: higher = stronger binding; quantity: relative binding score
Target: ABI1, truncated, D143A, DHFR fusion (Arabidopsis thaliana)
Setting: methotrexate growth selection, single substitutions
Starting sequence: PYL1, truncated, DHFR fusion (Arabidopsis thaliana); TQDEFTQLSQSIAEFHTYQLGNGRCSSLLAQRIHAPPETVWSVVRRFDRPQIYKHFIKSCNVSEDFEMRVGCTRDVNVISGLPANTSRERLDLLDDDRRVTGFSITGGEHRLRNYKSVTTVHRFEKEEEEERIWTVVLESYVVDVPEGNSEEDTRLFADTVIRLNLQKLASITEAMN
G71V: 0.95%
C25E: -2.94%
T119S: -4.97%
A175M: 22.8%
N177C: 62.9%
R99T: -9.33%

Further values, each from its own experiment
PhoQ, residues 284 288 289 292 302 303 TLASMF — fold induction (PhoP, residues 12 14 15 18 19 NQGLL (Escherichia coli, UniProt P23836); Sort-seq, measured: YFP reporter; E. coli; PhoQ-PhoP variant library, added: 10 µM Mg2+; baseline: high Mg2+ state, higher = stronger signaling): 5.66

A few entries again (block 1):
2'F-ANA at 4 7 9 15: 320 a.u.
2'F-ANA at 2 3 4 5 10 14 15: 49 a.u.
2'F-ANA at 3 5 7 9 10 11 12 13 15: 116 a.u.
2'F-ANA at 2 6 7 10 11 12 14: 81.4 a.u.
